Published values of several laboratories.
Numbered parts are unrelated; each lists some results of a single study. Substitutions count along the parent as printed.

Sample 1 — technique: DHFR PCA, deep sequencing; sample: yeast; added: (+)-ABA 0.39 µM; baseline: wild-type fitted maximum; reading: higher = stronger binding
Target: ABI1, truncated, D143A, DHFR fusion (Arabidopsis thaliana)
Setting: methotrexate growth selection, single substitutions
Parent: PYL1, truncated, DHFR fusion (Arabidopsis thaliana); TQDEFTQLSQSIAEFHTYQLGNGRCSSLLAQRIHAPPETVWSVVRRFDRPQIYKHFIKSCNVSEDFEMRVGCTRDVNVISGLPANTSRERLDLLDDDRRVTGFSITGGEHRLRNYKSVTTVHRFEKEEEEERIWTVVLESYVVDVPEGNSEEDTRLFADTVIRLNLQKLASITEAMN; partner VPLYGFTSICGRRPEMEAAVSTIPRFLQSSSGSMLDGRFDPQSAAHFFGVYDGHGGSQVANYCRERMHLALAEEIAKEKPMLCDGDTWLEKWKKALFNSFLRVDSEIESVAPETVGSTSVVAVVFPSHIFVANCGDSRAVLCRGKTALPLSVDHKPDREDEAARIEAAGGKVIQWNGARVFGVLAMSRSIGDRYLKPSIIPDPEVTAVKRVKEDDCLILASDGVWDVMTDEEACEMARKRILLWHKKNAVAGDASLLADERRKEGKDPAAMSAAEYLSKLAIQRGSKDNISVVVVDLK
Substitution | relative binding score
K58Q | 24.7%
G107K | -6.59%
D48R | -3.14%
L169A | -11%
H55G | 45.2%
E67Q | 49.9%
V62F | 6.05%
N177V | 59.7%
R98A | 8.95%
N77E | 72.5%
K116N | -9.26%
R88M | 23.7%
F124H | 6.56%
S150T | 64.1%
T119P | -10%
T106K | -11.8%
F157P | 12.5%
L28M | 37.5%

Sample 2 — technique: protein binding microarray; form: double-stranded DNA, one strand shown; sample: in vitro; tested at: not given; baseline: not given; reading: higher = stronger binding
Target: Histone acetyltransferase KAT6A, winged helix 1, GST fusion (KAT6A, Homo sapiens, UniProt Q92794, residues 1-85)
Setting: 8-mer, flanks averaged, mean of 2 arrays, mostly near background
Construct (chain): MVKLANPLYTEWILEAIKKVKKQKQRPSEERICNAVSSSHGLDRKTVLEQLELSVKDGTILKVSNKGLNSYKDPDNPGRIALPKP
Sequence | E-score
CATCTTCA | -0.266
GGGGGGAA | -0.0855
CATCCGGG | -0.0227
CCTACCCG | 0.212
ACTGACGG | 0.148
CCTGAATC | -0.169
AAGGGGAT | -0.145
CGATACAG | -0.137
CTGGAAAC | -0.0867
AACTTCTA | -0.223
CGACTCCC | 0.0101
AGCAAAGC | -0.0257
GAACGAGA | 0.0116
GCAGGAAA | -0.13
TGTGACAA | -0.137
ACTGCAGA | -0.221

Sample 3 — technique: RNAcompete; form: RNA; sample: in vitro; tested at: 20 nM; setting: 7-mer, probes averaged, single round; baseline: mean of 7-mers; reading: higher = stronger binding
Target: PABPC1L2, full length, GST fusion (mouse, UniProt A0ABA7IW68)
Residues (chain): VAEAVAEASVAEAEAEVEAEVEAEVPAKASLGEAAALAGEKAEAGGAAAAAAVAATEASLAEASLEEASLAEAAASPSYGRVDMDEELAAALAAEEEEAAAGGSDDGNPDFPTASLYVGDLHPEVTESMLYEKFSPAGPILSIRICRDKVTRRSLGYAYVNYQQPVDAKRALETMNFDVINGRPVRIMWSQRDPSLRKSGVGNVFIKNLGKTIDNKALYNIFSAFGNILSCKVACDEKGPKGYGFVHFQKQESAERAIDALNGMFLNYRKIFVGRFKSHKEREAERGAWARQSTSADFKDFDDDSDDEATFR
Sequence | 7-mer Z-score
UUCCACC | -0.295
GGGCGGG | 0.247
GAAUGUC | -0.19
UGUGGUG | -0.166
UUACCGA | -0.182
UUUCCAU | -0.307
CGGUCCA | -0.161
CGGAGGU | 0.111
UAGUCGU | -0.391
GUCGGGG | -0.0518
CACAUAG | -0.0464
UAAAGAC | 1.09
UCAAAUG | -0.18
AAGCACG | 0.138
UUGAAAA | 2.63
ACCAAUU | -0.11
UACAAUG | -0.0156
UGCCCUG | -0.309

Sample 4 — technique: RNA Bind-n-Seq; form: RNA; sample: in vitro; tested at: 1 µM; setting: whole 134-nt RNA, ends assumed; added: 150 mM KCl; baseline: input library; reading: higher = stronger binding
Target: Ras GTPase-activating protein-binding protein 1, C-terminal RGG region (G3BP1, Homo sapiens, UniProt Q13283)
UniProt Q13283, sequence (whole entry, looked up): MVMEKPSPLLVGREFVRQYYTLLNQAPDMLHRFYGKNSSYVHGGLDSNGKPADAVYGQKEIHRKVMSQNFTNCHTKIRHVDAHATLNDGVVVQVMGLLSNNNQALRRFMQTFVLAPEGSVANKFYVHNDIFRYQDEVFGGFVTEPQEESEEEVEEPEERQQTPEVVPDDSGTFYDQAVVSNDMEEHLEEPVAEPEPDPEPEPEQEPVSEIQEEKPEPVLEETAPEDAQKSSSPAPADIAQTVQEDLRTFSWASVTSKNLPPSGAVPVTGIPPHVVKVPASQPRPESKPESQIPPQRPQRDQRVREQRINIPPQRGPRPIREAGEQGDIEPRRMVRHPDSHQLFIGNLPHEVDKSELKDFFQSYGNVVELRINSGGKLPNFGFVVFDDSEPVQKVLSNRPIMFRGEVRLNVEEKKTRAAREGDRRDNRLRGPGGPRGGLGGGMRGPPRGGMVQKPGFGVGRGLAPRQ
Constant ends, left off below: GGGAGUUCUACAGUCCGACGAUC … UGGAAUUCUCGGGUGUCAAGG
Sequence | log2 enrichment
UAACUUUAGAGGAGGAUCUGAUGGAUAUGCCAGUGGACGUGGAUUUGGGGAUGGCUAUAAUGGGUAUGGAGGAGGACCUGGAGGUGGCAA | -1.25
CCUCAAGUCCUGUGCUACACAUCGUAUGUACCGAAUCGGAGGGGAGGAGGGGAAAGUAUUAUGUUACGCCGUUCGGAUCUGCACUUCCAG | -0.56
CCUCAAGUCCUGUGCUACACAUCGUAUGUACCGAAUCGGGGAGGGGAGGGAGGAAAGUAUUAUGUUACGCCGUUCGGAUCUGCACUUCCA | 0.432
GUCCUGUGCUACACAUCGUAUGUACCGAAUCGGGGAAAAAGGAAAAAGGGGAAAAAGGGAAAGUAUUAUGUUACGCCGUUCGGAUCUGCA | -1.14
UGGGAGGUGGAUUUUGUUUAUUUUUUUAGCUCAUUUCCAGGGGUGGGAAUUUUUUUUUCAUAUGUGUCAUGAAUAAAGUUGUUUUUGAAA | 4.34
CAAGUCCUGUGCUACACAUCGUAUGUACCGAAUCGGGGCCGGGGCCGGGGCCGGGGAAAGUAUUAUGUUACGCCGUUCGGAUCUGCACUU | -1.58
AAGUCCUGUGCUACACAUCGUAUGUACCGAAUCGGUUUUGGUUUUGGGUUUUGGGGAAAGUAUUAUGUUACGCCGUUCGGAUCUGCACUU | -1.3
UCAAGUCCUGUGCUACACAUCGUAUGUACCGAAUCGGUUUUUGGAAAAAGGUGGAAAGUAUUAUGUUACGCCGUUCGGAUCUGCACUUCC | -1.07
